Assay results from different studies.
Every numbered part comes from another study and shows a few of its results, in no order. Positions count from the first letter of the parent shown.

Block 1
Target: CCNB2, cyclin fold, Cln2 fusion (human)
Technique: yeast growth competition, sequencing
Matrix: yeast
Setting: weak parent motif
Reference: not given
Reading: higher = stronger binding
Quantity: normalised enrichment score
Starting sequence: CDC6 docking peptide (human); TLKGRRLVFDNQL; partner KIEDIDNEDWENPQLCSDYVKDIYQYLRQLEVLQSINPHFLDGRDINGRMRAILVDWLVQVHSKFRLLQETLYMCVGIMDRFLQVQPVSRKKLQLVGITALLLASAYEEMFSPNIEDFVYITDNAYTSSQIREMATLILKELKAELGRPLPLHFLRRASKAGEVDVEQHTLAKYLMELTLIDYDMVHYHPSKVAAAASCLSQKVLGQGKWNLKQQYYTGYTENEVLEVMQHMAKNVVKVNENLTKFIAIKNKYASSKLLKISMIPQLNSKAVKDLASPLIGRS
Variant = K3H; value = -0.616
Variant = Q12K; value = 0.199
Variant = F9I; value = 0.691
Variant = Q12Y; value = 0.752
Variant = L7E; value = 0.298
Variant = K3Q; value = 0.286
Variant = L7D; value = 0.257
Variant = N11F; value = 0.496
Variant = F9A; value = 0.352
Variant = R5P; value = -0.691
Variant = L7W; value = 0.741
Variant = D10E; value = -0.816
Variant = R6N; value = -0.0826
Variant = D10R; value = 0.806
Variant = K3N; value = 0.265
Variant = R6F; value = -0.585
Variant = V8W; value = 0.106
Variant = F9E; value = 0.401
Variant = L2T; value = -0.157
Variant = V8L; value = 0.646
Variant = L2N; value = -0.0854
Variant = D10K; value = 0.844
Variant = V8K; value = 0.699
Variant = K3F; value = -0.164
Variant = L13K; value = -0.0822

Block 2
Target: Sal-like protein 4, full length isoform A (SALL4, Homo sapiens, UniProt Q9UJQ4, residues 1-1053)
Chain of UniProt Q9UJQ4 (whole entry, looked up): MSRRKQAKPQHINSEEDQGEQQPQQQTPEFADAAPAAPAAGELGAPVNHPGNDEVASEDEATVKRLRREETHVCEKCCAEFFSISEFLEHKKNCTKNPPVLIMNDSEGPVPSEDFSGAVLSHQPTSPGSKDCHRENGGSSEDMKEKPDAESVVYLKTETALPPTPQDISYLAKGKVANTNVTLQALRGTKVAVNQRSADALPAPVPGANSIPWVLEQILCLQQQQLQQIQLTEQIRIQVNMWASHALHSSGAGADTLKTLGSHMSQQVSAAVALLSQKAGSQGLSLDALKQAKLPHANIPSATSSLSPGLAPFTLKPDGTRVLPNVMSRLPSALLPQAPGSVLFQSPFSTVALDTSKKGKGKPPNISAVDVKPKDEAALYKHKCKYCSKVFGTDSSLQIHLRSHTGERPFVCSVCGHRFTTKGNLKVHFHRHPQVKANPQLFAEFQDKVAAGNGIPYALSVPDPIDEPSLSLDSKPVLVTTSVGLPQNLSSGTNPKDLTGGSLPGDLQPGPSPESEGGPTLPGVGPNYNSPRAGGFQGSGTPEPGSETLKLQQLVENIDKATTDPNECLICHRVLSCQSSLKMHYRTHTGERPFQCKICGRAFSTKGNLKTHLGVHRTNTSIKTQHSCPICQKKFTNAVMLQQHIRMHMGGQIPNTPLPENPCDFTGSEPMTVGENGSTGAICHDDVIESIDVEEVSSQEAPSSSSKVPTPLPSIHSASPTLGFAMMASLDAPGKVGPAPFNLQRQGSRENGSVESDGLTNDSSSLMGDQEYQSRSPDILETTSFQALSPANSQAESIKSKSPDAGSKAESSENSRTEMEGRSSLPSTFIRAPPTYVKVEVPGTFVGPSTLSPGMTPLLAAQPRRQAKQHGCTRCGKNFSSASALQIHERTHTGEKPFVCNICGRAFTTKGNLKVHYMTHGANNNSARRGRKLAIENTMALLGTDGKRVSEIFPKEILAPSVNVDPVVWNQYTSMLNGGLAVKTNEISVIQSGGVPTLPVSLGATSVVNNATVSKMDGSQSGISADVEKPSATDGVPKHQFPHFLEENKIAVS
Technique: universal PBM
Molecule type: double-stranded DNA, one strand shown
Matrix: in vitro
Concentration: 600 nM
Setting: 8-mer, flanks averaged, mean of replicates
Reading: higher = stronger binding
Quantity: E-score
Sequence = CTTCAAGA; value = 0.248
Sequence = ATGGAAAA; value = 0.266
Sequence = AGACGGCT; value = -0.292
Sequence = ACGTTTAA; value = 0.28
Sequence = ACATCCGT; value = 0.0665
Sequence = CGACACGC; value = -0.202
Sequence = CCCGACGA; value = -0.00785
Sequence = CAGGTAAA; value = 0.218
Sequence = ATACCAGG; value = -0.0219
Sequence = AAGCTGGC; value = -0.163
Sequence = AACATCAT; value = 0.275
Sequence = TCCCGAAA; value = 0.0977
Sequence = GACTTGGC; value = -0.153
Sequence = ACACGAAG; value = 0.0241
Sequence = CTTGCCTA; value = 0.0679
Sequence = CAGAGAGC; value = -0.164
Sequence = ACGGCCAG; value = -0.289
Sequence = AGGGAGCC; value = -0.425
Sequence = AAGTCGTC; value = -0.0653
Sequence = ATCAGGCC; value = -0.0607
Sequence = GATCAATC; value = -0.0165
Sequence = AGCAACAG; value = 0.0232

Block 3
Target: RNA binding protein fox-1 homolog 2, RRM domain, GST-SBP tag (RBFOX2, Homo sapiens, UniProt O43251-10, residues 100-194)
Technique: RNA Bind-n-Seq
Molecule type: RNA
Matrix: in vitro
Concentration: 365 nM
Setting: natural RNA segment, single round, ends assumed
Reference: no-protein control
Reading: higher = stronger binding
Quantity: RBNS enrichment (R)
Shared flanks, not repeated: GGGAGUUCUACAGUCCGACGAUC … UGGAAUUCUCGGGUGCCAA
Target sequence (chain): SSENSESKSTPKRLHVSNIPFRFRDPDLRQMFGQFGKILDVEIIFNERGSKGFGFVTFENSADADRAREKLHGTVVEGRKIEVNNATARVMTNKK
Sequence = GAACUGUAUUAGUGUUGUACCAGCCUAUUAACCUCUUGUCUGUGCACAGCUUCAAAUGUUACCGUCUAGUUAGAUUUUUAUUUAAAAUAUGAAAAACUGCUUUUCCCAAG; value = 0.428
Sequence = CUAUUGGCACAAGAAGUGGGGCACCCCCCCCCAGAAGGAACCAGAAACUAAGGCUAUCAAGGAGUGAGAUAGAAUGAAGACACUCCUAUUUCUCCUCCAGCCAGGGUUGC; value = 0.724
Sequence = AGGCCUUUGGCUUUUGACCCAGGAGGGCCGCGAGGCUGGAGCUGCCCUGUCUUUCAUUGAGCCUUAGCAUUUCCCUCUCAGGCUUCCUCUCAAGCUCAAGGAACUCACCC; value = 0.391
Sequence = GCACCUGGGACAACAGCACAGCUGAGCCGCAGACACGAAGACAUUUGUUAAGUUAUCAGCCACGUCUGCAUCACAGACUACAGGUACUACCAUUUAGCGGAGUUAUCUUU; value = 0.249
Sequence = GUUGAGAAUUGUAUUCAGUGAUUGUUUCUGCACACUUUUCAAAUAAAAAAUGAAUUUUUAUCAAUUAUUUUCUGUACUCAAAGCAACUUUAUUUCUGUGCUGAAGUUGAG; value = 1.61
Sequence = GCUCAGUGUGAGCGGUUUGCUGUUAGCCAGGGCUAUUUAUGGCAAACACAUGCUUUUGUAUCUUGUCAUAGUUAUCCACAAAUGGCAAAACUGGACUUGAUUCUACUGGU; value = 0.288
Sequence = UGGCCUUCUGGAAGUAUCAGCGGCCUGAAGGCCUCUGGCUACCUCGACUUUGGACAGAGUAAUGACUCCCCAGAAAACGUCAUAUAAGACUUUACCAGCCCCUGAGAGGA; value = 0.423
Sequence = CCAGCCCCAGCCAGCCCCAGCGGCUCUGGCUGUCCACAAGCCAGGCAGAGAACUCAGGAGCUCUGCACUCAACGCCCCUGCUGCCUCGCCCCCUCCCUGACAGGUGUCUU; value = 0.405
Sequence = UUCUGUCCCUGAGAACAUGACGUUUGUGACGUCCUACCCAUUGGGAGUCCUUCACACCCCAGCCAUCGCUGCCCACUCCCAGGAGGCCAGGGCAAGCCUGUGUGGACUGG; value = 0.304
Sequence = UGAUGUCAGUGCUGACUGAGUCCAUGCUAACUGAGAUCUGUAGGCAGAGCUCUGCCCUGUAGCUCCCUGCCUCAGUUUAUCUUUGCAAUACAAAGCAAAUCCUUCCCCAG; value = 0.314
Sequence = UCACUCUUCACUUGAGUUGGCUGUGUUCGGGGGAGCAGAGAGAGCCAGACAGCCCCAAGCUUCUGAGUCUAGAUACAGAAGCCCAUGUCUUCUGCUGUUCUUCACUUCUG; value = 0.311
Sequence = UCAGUCAGGAUGGAACAGUGCUACAAGCACCAGCCUGCCUCUGAGCAGUGCUCGGAACAGCUGAGGCCGUGGCGGGCUCCACUAACCCCCAGUGUUAUCGUGUUUUAUAG; value = 0.967

Block 4
Target: Interferon regulatory factor 5, full length, phosphomimetic (IRF5, Homo sapiens, UniProt Q13568-2, residues 1-514, K96S/S451D/S453D/S456D/S462D)
Technique: protein-binding microarray
Molecule type: double-stranded DNA, one strand shown
Matrix: in vitro
Concentration: 250 nM
Setting: 60-bp whole probe
With: salmon DNA 0.4 mg/ml
Reference: random background probes
Reading: higher = stronger binding
Quantity: log fluorescence
Shared flanks, not repeated: GCCTAGCAC … GTCTTGATTCGCTTGACGCTGCTG
Sequence = GACGGTCTCGGTCTTGGGACGTGCTAG; value = -0.146 z-score
Sequence = GACGGTCGCGGTTTCGGGACGTGCTAG; value = 2.04 z-score
Sequence = TTAGGACTGGGAATCGGTTAGTGCTAG; value = 0.101 z-score
Sequence = TTAAGTTTCCTTCTCCTTTAGTGCTAG; value = 1.92 z-score
Sequence = GACGGATTGCTTTTCCTGACGTGCTAG; value = 0.107 z-score
Sequence = GACGGTCTCCTTCTTCTGACGTGCTAG; value = 0.192 z-score
Sequence = TTAGGTATCGTTATCCTTTAGTGCTAG; value = 3.2 z-score
Sequence = TTAGATTTCGGGACCGGATTAGTGCTA; value = 2.88 z-score
Sequence = TGGGCTCTAGGTTCTCTGAAGGTGCTA; value = -0.405 z-score
Sequence = TTAGGACTGGACGTTCGGTTAGTGCTA; value = -0.177 z-score
Sequence = TTAGAACTGAGCCTCGATTAGTGCTAG; value = -0.262 z-score
Sequence = TTAGGTTTCATTCTCCTTTAGTGCTAG; value = 3.32 z-score
Sequence = TAAGGTTTCGGGTATCGGTTAGTGCTA; value = 8.57 z-score
Sequence = GACGCACTGGACTTTCGGGACGTGCTA; value = 4.49 z-score
Sequence = TCAGCTCTGGCACCTCTAACTGTGCTA; value = -0.365 z-score
Sequence = GACGGACTGCTACCGCTGACGTGCTAG; value = -0.556 z-score
Sequence = GGGACTTTGAATTAGAAAGAGTGCTAG; value = -0.116 z-score
Sequence = GACGGTAACGACACTGGGGACGTGCTA; value = 0.0244 z-score
Sequence = TCATATTTAAGAACTATGACTGTGCTA; value = 0.419 z-score
Sequence = GACGATTTCGGGTTTCGAGAAGTGCTA; value = 5.3 z-score
Sequence = TCAGCTTCCTCTTTTTTACTGTGCTAG; value = 0.671 z-score
Sequence = GACGGACTGGACTATAGGGACGTGCTA; value = -0.564 z-score
Sequence = GATGGCCTCTTGCTCAGCCCGTGCTAG; value = -0.807 z-score
Sequence = TTTTGCTTTCTTTTATGCTCGTGCTAG; value = 6 z-score

Block 5
Target: Histone acetyltransferase KAT6A, both winged helices, GST fusion (KAT6A, Homo sapiens, UniProt Q92794, residues 1-181)
Technique: protein binding microarray
Molecule type: double-stranded DNA, one strand shown
Matrix: in vitro
Concentration: not given
Setting: 8-mer, flanks averaged, mean of 2 arrays, mostly near background
Reference: not given
Reading: higher = stronger binding
Quantity: E-score
Construct (chain): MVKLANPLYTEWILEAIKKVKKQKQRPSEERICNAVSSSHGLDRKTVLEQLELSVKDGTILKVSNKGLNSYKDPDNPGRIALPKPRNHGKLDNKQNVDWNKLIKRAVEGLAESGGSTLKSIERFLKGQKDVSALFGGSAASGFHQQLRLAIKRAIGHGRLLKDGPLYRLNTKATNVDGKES
Sequence = AGGAGAAT; value = -0.152
Sequence = GGGGGACC; value = -0.133
Sequence = CCAATGGC; value = -0.0117
Sequence = CGGAATAG; value = 0.224
Sequence = GACCGCGC; value = 0.3
Sequence = ACACCGTG; value = 0.219
Sequence = ATCATCTC; value = -0.116
Sequence = CGCTGCAG; value = 0.114
Sequence = GTAGCTAA; value = -0.0489
Sequence = AGTGGTGC; value = -0.112
Sequence = ATAGCGGA; value = 0.213
Sequence = CGACGCCA; value = 0.172
Sequence = AGAAACGC; value = 0.151
Sequence = CTGGATCC; value = -0.0318
Sequence = CTGTCTAC; value = -0.201
Sequence = GTGGCATA; value = -0.145
Sequence = AGGTATTG; value = -0.0749
Sequence = GCAACACC; value = 0.0857
Sequence = CAATTGCG; value = 0.186
Sequence = ATAGGCTG; value = -0.0998
Sequence = ATCGTAAT; value = 0.0476
Sequence = CAGCCGCC; value = 0.268
Sequence = AATTTGAA; value = 0.0343
Sequence = AGATAGCT; value = -0.00127
Sequence = ATCACCGG; value = 0.157

For quick reference, copied from above (block 1):
Variant = L7W; value = 0.741
Variant = D10E; value = -0.816
Variant = R6N; value = -0.0826
Variant = D10R; value = 0.806
Variant = K3N; value = 0.265
Variant = R6F; value = -0.585
Variant = V8W; value = 0.106
Variant = F9E; value = 0.401
Variant = L2T; value = -0.157
Variant = V8L; value = 0.646
